Measured values of several laboratories.
Every numbered part comes from another study and shows a few of its results, in no order. Changes are numbered by the printed parent chain.

Sample 1
Target: PABPC1L2, full length, GST fusion (mouse, UniProt A0ABA7IW68)
Technique: RNAcompete
Molecule type: RNA
Matrix: in vitro
Concentration: 20 nM
Setting: 7-mer, probes averaged, single round
Relative to: mean of 7-mers
Reading: higher = stronger binding
Residues (chain): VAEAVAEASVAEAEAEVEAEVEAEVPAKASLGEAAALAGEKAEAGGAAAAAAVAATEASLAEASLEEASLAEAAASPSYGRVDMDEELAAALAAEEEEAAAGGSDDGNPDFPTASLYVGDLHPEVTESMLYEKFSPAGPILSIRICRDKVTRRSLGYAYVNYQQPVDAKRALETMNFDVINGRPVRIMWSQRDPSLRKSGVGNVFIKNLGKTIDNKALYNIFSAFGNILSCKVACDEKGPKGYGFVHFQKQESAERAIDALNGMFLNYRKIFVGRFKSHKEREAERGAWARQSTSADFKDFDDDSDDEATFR
The 7-mer Z-score of `GUUAUGG` is reported as -0.0826.
`UAGCAUA` has a 7-mer Z-score of -0.0228.
`UCCACUU` has a 7-mer Z-score of -0.291.
The 7-mer Z-score of `AUGCGUG` is reported as -0.103.
With `GAGGAAU` the 7-mer Z-score was 0.108.
The 7-mer Z-score of `UUACGUA` is reported as -0.173.
The 7-mer Z-score of `ACUCGAA` is reported as -0.157.
`AAAUUAA` has a 7-mer Z-score of 1.02.

Sample 2
Target: DBP, bZIP domain (human)
Technique: DHFR protein complementation
Matrix: yeast
Setting: single substitutions, most at no-binding floor
Relative to: wild-type JUN-FOS pair
Reading: higher = stronger binding
Parent: JUN, bZIP domain (human); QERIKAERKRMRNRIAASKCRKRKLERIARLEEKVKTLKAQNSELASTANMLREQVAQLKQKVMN; partner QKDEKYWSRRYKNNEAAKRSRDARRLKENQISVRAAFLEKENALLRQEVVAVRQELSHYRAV
With `K36S` the binding fitness was -1.44 natural log.
`L31E` gave a binding fitness of -1.52 natural log.
The binding fitness of `L45C` is reported as -1.54 natural log.
The binding fitness of `A40P` is reported as -1.5 natural log.
`E32A` gave a binding fitness of -1.3 natural log.
`A46Y` has a binding fitness of -1.54 natural log.
`E33S` has a binding fitness of -1.53 natural log.
The binding fitness of `K36R` is reported as -1.35 natural log.

Sample 3
Target: RNA binding protein fox-1 homolog 2, RRM domain, GST-SBP tag (RBFOX2, Homo sapiens, UniProt O43251-10, residues 100-194)
Technique: RNA Bind-n-Seq
Molecule type: RNA
Matrix: in vitro
Concentration: 365 nM
Setting: natural RNA segment, single round, ends assumed
Relative to: no-protein control
Reading: higher = stronger binding
Shared flanks, not repeated: GGGAGUUCUACAGUCCGACGAUC … UGGAAUUCUCGGGUGCCAA
Target sequence (chain): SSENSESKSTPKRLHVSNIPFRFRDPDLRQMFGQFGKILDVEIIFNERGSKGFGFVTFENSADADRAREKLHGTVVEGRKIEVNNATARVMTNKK
For `GUGGGCAGGGUGUUCUUUCUUCACAUUUUUCUUCCCUUUUUUCCCCAUUUUUAAAUAGUACUUUCUUUGAGUCAUAAAUUGUAUCUAACCAUCUUGGGUUCUGGUCAGUG`, “RBNS enrichment (R)” read 0.805.
`UUCUUCCCAUGCCCUGCCUCAGUAUCCCCAGAACUUGUGGCAGACAUUCACAGGUGCACGCAUAUAUGUGUGUCGCCCCCACCCCCGCCAUGGCAUUUCAUGAUAUGUGA`: “RBNS enrichment (R)” 0.386.
For `UUAAUGUUUGUGGCUUUCUCUCCAGCCUCUCUUAGGAGGGGUAAUGGUGGAGUUGGCAUCUUGUAACUCUCCUUUCUCCUUUCUUCCCCUUUCUCUGCCCGCCUUUCCCA`, “RBNS enrichment (R)” read 0.537.
`GUUGAUGUUUGGUUCGGUAUUCUUGCAUAAAACUUAAAAAUUAAACGAACGCUGCAGAGUUUACUGAUGUAUAUCAAAGGCCAAUAAGCUCUUUUAAUUGGUGACAGAUC`: “RBNS enrichment (R)” 0.632.
`GAUGUGCCAGUUUCUGAGACAUCUUUUUAAGGCUCUUACUGCAGCUCCCCUCCCCACCCUCCUCUUCUUUGCAAAACAGACCCAAGCAGGGCAGGCUCAGACCACUCGCU`: “RBNS enrichment (R)” 0.306.
Under “RBNS enrichment (R)”, `GCUUCCUUCCGAGUCUCCCUAGCCACCCGCACUACUGGACUGUGGAAGGAAGCGUCUACAGAGAACGGUUUCCAACAUCCAUCGCUGCAGCAGACGGUGUCCCUCAGUGA` is recorded as 0.268.
For `GAGGACAGUUCCAUCCUACCUUUGUCCUUCCCUGGUACAGCCUGUGACCCUGGCACACUGCACAUGCUGAUCUGAGUGGCUCUGCUCACUGUCGCACACCCCUUCCUCUC`, “RBNS enrichment (R)” read 0.728.
`UUUCCUCAUCUAUGAAAUGAAGAUUGUAGUUUUUAUUUCAUAGAGUCAUGAAGAUUGAGUUAAUCUCUGAAAUAUCCACACAGUGUUGUCACUCAGGAAUGAUUUGGAAU` — result for “RBNS enrichment (R)”: 0.349.

Further values, each from its own experiment
Parent: PafA, mature enzyme, eGFP fusion (Elizabethkingia meningoseptica, UniProt Q9KJX5); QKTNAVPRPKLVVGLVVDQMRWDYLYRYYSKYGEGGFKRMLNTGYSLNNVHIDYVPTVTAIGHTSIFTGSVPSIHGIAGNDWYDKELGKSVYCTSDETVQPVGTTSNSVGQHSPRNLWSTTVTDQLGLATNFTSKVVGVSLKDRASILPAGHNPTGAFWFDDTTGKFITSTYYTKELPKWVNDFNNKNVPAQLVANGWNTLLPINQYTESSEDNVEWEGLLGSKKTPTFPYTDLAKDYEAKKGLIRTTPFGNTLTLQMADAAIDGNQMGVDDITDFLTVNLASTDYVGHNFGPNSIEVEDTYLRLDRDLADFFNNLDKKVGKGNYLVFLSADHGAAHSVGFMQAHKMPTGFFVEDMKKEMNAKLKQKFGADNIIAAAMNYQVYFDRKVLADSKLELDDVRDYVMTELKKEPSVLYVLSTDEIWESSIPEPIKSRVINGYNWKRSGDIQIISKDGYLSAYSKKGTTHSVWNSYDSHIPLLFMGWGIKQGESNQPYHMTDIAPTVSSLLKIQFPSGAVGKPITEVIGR
Under “oxyanion analog dissociation constant”, `N42G` is recorded as 570 nM (vanadate, free oxyanion; microfluidic competitive inhibition; in vitro, cell-free expressed; not given, derived from inhibition constants, unchanged parent 676 nM; lower = stronger binding).

Excerpt of the above (sample 1):
`UAGCAUA` has a 7-mer Z-score of -0.0228.
`UCCACUU` has a 7-mer Z-score of -0.291.
The 7-mer Z-score of `AUGCGUG` is reported as -0.103.
